Results from different studies.
± gives the spread as reported.
USP20 ZnF-UBD domain: Ubiquitin carboxyl-terminal hydrolase 20, ZnF-UBD domain (USP20, Homo sapiens, UniProt Q9Y2K6)
Sequence of UniProt Q9Y2K6 (whole entry, looked up): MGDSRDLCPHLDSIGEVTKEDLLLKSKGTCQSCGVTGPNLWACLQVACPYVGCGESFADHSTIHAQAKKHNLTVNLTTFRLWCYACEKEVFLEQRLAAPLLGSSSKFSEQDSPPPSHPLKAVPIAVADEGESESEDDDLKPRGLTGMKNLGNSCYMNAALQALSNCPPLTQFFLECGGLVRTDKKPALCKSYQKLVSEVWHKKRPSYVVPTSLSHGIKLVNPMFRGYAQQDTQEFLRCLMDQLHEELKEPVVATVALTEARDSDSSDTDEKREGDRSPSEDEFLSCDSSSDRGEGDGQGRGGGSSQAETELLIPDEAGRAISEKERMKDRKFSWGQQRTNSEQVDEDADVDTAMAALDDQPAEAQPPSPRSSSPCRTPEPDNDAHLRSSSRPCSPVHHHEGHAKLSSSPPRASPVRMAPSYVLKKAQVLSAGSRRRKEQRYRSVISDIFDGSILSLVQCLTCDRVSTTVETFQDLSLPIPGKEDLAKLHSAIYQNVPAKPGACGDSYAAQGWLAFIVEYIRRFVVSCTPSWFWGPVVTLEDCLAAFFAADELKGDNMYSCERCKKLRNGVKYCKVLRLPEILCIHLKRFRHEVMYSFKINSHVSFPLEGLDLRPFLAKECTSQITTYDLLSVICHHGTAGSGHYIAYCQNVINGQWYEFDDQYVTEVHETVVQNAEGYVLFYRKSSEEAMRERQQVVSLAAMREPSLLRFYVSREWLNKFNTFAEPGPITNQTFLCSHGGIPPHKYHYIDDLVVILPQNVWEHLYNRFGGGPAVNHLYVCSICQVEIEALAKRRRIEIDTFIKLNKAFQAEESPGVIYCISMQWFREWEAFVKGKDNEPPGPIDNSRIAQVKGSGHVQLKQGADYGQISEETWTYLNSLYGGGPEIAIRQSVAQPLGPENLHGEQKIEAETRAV
Sequence of UniProt P42337 (whole entry, unmodified, looked up): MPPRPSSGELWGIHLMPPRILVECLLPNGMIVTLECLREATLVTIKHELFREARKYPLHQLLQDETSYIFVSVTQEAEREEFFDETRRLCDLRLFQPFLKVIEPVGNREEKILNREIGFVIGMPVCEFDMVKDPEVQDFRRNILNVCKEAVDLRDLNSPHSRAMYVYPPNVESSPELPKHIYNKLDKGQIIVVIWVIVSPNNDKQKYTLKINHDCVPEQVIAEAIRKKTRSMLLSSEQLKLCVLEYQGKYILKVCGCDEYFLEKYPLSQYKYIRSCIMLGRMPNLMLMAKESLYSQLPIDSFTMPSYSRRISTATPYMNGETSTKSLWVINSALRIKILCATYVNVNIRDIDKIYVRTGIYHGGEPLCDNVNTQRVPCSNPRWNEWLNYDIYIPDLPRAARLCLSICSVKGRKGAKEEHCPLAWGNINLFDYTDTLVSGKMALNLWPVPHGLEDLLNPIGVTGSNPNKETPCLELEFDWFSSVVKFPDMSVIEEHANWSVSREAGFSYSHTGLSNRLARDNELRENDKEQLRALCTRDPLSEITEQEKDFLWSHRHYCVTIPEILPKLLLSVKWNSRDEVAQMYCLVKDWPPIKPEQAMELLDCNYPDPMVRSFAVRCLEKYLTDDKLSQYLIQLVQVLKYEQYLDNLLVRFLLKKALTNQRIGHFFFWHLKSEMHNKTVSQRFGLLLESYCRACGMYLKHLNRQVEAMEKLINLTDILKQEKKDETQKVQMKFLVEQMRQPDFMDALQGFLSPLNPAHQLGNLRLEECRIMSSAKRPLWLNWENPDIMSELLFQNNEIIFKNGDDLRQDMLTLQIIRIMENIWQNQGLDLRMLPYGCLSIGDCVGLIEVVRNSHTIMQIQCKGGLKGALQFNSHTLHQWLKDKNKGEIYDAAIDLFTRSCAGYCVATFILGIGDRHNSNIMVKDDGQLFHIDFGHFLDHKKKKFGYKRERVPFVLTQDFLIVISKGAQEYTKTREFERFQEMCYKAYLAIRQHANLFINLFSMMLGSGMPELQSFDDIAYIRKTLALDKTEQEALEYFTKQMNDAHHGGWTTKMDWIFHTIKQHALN
Sequence of UniProt P43250 (whole entry, looked up): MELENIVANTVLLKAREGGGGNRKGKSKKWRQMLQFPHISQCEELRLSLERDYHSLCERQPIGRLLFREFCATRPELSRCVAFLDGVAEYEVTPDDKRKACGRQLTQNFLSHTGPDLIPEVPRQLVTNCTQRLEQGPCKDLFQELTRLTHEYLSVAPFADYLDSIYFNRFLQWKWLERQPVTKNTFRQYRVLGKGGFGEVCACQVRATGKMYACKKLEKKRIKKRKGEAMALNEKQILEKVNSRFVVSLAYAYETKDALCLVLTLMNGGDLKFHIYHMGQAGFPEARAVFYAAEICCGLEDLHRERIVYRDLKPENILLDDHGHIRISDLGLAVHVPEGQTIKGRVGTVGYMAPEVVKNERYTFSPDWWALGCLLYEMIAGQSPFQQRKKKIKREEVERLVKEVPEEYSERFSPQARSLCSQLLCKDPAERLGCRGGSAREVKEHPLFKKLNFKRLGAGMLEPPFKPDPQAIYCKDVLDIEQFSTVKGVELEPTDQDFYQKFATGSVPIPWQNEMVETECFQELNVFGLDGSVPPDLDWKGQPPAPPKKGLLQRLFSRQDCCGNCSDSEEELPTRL
Sequence of UniProt O15197 (whole entry, looked up): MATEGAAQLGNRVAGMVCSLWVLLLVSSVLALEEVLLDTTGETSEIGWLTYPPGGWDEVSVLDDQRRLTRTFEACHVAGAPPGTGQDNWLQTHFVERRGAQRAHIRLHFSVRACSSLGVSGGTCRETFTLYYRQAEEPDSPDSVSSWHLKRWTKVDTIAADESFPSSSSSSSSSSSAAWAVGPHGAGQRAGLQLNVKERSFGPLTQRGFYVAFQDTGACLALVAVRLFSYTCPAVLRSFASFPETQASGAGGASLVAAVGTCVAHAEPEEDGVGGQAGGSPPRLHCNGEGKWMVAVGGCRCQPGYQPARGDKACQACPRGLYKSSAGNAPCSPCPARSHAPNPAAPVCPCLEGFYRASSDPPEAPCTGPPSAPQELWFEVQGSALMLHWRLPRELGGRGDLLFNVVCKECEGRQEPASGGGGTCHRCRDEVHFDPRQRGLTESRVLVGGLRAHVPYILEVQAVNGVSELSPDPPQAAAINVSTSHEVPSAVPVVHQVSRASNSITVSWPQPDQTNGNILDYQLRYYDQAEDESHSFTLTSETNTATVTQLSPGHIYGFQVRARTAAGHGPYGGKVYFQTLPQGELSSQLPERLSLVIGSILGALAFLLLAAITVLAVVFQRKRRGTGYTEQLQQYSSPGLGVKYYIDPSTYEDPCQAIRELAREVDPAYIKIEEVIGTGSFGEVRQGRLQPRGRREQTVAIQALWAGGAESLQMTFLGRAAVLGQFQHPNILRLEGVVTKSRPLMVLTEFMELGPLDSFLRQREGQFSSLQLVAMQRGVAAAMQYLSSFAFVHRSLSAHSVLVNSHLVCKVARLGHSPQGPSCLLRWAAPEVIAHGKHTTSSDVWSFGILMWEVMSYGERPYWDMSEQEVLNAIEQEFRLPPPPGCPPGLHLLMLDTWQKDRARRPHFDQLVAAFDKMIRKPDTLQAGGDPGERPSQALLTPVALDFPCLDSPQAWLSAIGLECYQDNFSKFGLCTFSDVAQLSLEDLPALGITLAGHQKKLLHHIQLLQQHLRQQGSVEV
Sequence of UniProt Q8NG66 (whole entry, looked up): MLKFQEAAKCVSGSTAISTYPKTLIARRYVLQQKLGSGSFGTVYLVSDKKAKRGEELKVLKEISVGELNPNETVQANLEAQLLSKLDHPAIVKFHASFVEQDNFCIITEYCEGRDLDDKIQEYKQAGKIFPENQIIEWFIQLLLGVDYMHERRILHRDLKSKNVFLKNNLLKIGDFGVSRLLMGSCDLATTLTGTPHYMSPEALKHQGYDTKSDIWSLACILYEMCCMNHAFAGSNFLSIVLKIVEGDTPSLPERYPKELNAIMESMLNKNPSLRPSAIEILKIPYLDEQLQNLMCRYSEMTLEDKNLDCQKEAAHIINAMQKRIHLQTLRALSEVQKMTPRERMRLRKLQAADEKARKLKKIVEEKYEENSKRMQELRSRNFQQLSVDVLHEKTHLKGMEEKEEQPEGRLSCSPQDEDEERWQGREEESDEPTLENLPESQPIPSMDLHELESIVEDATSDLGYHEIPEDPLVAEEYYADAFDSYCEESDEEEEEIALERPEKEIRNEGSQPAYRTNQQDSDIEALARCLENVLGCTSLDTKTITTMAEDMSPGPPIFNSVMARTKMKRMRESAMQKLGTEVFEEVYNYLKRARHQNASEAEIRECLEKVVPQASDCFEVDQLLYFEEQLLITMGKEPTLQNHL
Sequence of UniProt Q9Y345 (whole entry, looked up): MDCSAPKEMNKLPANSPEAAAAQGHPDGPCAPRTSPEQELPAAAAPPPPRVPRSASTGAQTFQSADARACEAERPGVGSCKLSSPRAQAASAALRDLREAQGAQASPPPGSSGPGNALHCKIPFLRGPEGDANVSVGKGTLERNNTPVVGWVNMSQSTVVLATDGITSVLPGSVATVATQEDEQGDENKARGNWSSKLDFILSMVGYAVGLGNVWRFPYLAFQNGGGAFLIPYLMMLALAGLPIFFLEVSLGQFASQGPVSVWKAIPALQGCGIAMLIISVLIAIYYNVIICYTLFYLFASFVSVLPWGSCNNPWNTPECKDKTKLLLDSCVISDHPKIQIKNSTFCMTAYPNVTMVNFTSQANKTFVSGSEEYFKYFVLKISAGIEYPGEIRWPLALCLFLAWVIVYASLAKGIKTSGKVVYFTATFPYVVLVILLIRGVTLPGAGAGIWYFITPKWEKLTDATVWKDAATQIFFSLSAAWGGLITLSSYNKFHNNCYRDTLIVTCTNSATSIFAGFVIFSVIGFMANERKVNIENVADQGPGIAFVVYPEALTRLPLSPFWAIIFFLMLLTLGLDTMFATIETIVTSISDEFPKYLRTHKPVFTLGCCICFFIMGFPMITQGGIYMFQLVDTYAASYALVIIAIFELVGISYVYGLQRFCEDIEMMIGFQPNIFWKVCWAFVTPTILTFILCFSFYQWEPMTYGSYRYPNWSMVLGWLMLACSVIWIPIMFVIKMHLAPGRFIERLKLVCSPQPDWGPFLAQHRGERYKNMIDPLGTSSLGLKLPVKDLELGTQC

SMILES	tested on	test	test system	setting	how to read	measurement	value
C=CC(=O)N1CCC[C@@H](n2nc(-c3ccc(Oc4ccccc4)cc3)c3c(N)ncnc32)C1	SYK (Homo sapiens, UniProt P43405)	–	–	0.1 µM	–	remaining activity	90.5%
CNCC(=O)O	Sodium- and chloride-dependent glycine transporter 2 (Homo sapiens, UniProt Q9Y345)	glycine uptake, inhibitor, [3H]glycine uptake	–	2000 µM, log concentration 2, added: [3H]glycine	relative to: no inhibitor	remaining activity	103%
O=C(NC1CCC1)c1ccc2nc(-c3cccc(NS(=O)(=O)NCCN4CCCCC4)c3)cn2c1	KIT (Homo sapiens, UniProt P10721, L576P)	enzyme activity	–	10 µM	–	remaining activity	100%
Cc1cc(Nc2cc(N3CCN(C)CC3)nc(Sc3ccc(NC(=O)C4CC4)cc3)n2)[nH]n1	PRKCE (Homo sapiens, UniProt Q02156)	kinase activity, KinaseProfiler	–	0.03 µM, species human	relative to: control	remaining activity	98%
O=C(O)CCn1sc2ccccc2c1=O	USP20 ZnF-UBD domain	–	–	–	–	Kd	> 1000 µM
COc1cc(N2CCN(C)CC2)ccc1Nc1nc(N)n(C(=S)NCc2c(Cl)cccc2Cl)n1	DYRK1A (Homo sapiens, UniProt Q13627)	enzyme activity	–	10 µM	relative to: control	remaining activity	6.8%
CC[C@@H]1[C@H](F)C(=O)N[C@@H]1COc1nccc2cc(C(N)=O)c(OC)cc12	GAK (Homo sapiens, UniProt O14976)	ATP-site probe binding, ActivX profiling	THP-1 cell lysate	0.2 mM, Lys2 site	–	inhibition	-10%
C=CC(=O)N1CCC(Oc2cc3c(Nc4ccc(Cl)c(Cl)c4F)ncnc3cc2OC)CC1	–	substrate, refers to: metabolite M1 formation	rat liver microsomes	–	–	Km	5.99 µM
Cc1ccc(NC(=O)c2ccc(C)c(C(F)(F)F)c2)cc1C#Cc1nn(C2CCC(O)CC2)c2ncnc(N)c12 (stereo not drawn)	Phosphatidylinositol 4,5-bisphosphate 3-kinase catalytic subunit alpha isoform, with p85 alpha (Pik3ca, Mus musculus, UniProt P42337, E542K)	enzyme activity, inhibitor	–	10 µM, p110a(E542K)/p85a)(m mouse, added: ATP 10 µM	–	remaining activity	92%
COc1cc(-c2cncc3c2CN(C)Cc2cc(N4CCNCC4)ccc2-3)cc(OC)c1OC	Phosphatidylinositol 4,5-bisphosphate 3-kinase catalytic subunit alpha isoform, with p85 alpha (Pik3ca, Mus musculus, UniProt P42337)	kinase activity	–	1 µM, p110a/p85a)(m mouse, added: ATP 10 µM	relative to: DMSO	remaining activity	102%
COc1cc(F)ccc1-c1ncnc(Nc2cccc(C[S@](C)(=N)=O)c2)n1	NEK11 (Homo sapiens, UniProt Q8NG66)	kinase activity	–	10 µM, added: 10 µM ATP	–	remaining activity	73%
COc1ccc(F)cc1C(=O)NCc1ccc(-c2nn([C@@H](C)C(F)(F)F)c(N)c2C(N)=O)cc1	GRK6 (Homo sapiens, UniProt P43250)	kinase activity, inhibitor, HotSpot radiometric	–	100 nM, added: ATP 10 µM	–	remaining activity	30.5 ± 17.1%
COc1cc(N2CCN(C)CC2)ccc1Nc1nc(N)n(C(=O)NCc2ccccc2S(=O)(=O)C(C)C)n1	EPHB6 (Homo sapiens, UniProt O15197)	enzyme activity	–	10 µM	relative to: control	remaining activity	0.15%
O=C(O)CCc1nc2ccccc2c2nc(Cc3ccccc3)nn12	USP20 ZnF-UBD domain	–	–	–	–	Kd	> 1000 µM
CC#CC(=O)N1CCC[C@H]1c1nc(-c2ccc(C(=O)Nc3ccccn3)cc2)c2c(N)nccn12	CSK (Homo sapiens, UniProt P41240)	kinase activity, inhibitor, HotSpot radiometric	–	100 nM, added: ATP 10 µM	–	remaining activity	97.75 ± 0.2%
O=C(O)c1ccc(Nc2ncc3c(n2)-c2ccc(Cl)cc2C(c2c(F)cccc2F)=NC3)cc1	EphA4(h)	kinase activity	–	1 µM	–	remaining activity	90%
CNc1ncc2c(/C=C/C(=O)N3CCC(OC)CC3)nn(Cc3cccc(C(F)(F)F)c3)c2n1	CSF1R (Homo sapiens, UniProt P07333)	kinase activity, inhibitor	–	1 µM	relative to: untreated control	remaining activity	88%
CN(C)CC#Cc1ccc2[nH]c3c(c2c1)-c1nc(N)ncc1CCC3	PAK3 (Homo sapiens, UniProt O75914)	kinase activity, inhibitor, radiometric	–	1 µM, added: ATP at Km	–	remaining activity	81%
CC(C)C[C@H](NC(=O)C[C@H](O)[C@H](CC(C)C)NC(=O)[C@H](Cc1c[nH]cn1)NC(=O)CNC(=O)[C@@H](NC(=O)[C@H](C)NC(=O)[C@H](Cc1c[nH]c2ccccc12)NC(=O)[C@H](CCC(N)=O)NC(=O)[C@@H](Cc1ccccc1)NC(=O)COCCOCCNC(=O)CCC(C(=O)O)N1CCN(CC(=O)O)CCN(CC(=O)O)CCN(CC(=O)O)CC1)C(C)C)C(N)=O (stereo partly drawn) [lutetium-177 labelled]	–	–	female BALB/c nu/nu mice, blood	intravenous, 50 pmol, 1 h	–	tissue uptake	0.4 ± 0.1 %ID/g
COc1cc(Nc2ncc3c(n2)-c2ccc(Cl)cc2C(c2c(F)cccc2OC)=NC3)ccc1C(=O)O	Aurora B kinase (AURKB)	enzyme activity	–	1 µM	–	remaining activity	0%
Cc1cc(NC(=O)c2cccc(NC(=O)/C=C/CN(C)C)c2)ccc1Nc1nccc(-c2cccnc2)n1	MAPK8 (Homo sapiens, UniProt P45983)	enzyme activity, inhibitor	–	0.1829 µM, 6 h, unit not given, added: GSH 10 mM pre-incubation	relative to: vehicle	remaining activity	0.868

Some of these lines once more:
SMILES	tested on	test	test system	setting	how to read	measurement	value
O=C(NC1CCC1)c1ccc2nc(-c3cccc(NS(=O)(=O)NCCN4CCCCC4)c3)cn2c1	KIT (Homo sapiens, UniProt P10721, L576P)	enzyme activity	–	10 µM	–	remaining activity	100%
COc1ccc(F)cc1C(=O)NCc1ccc(-c2nn([C@@H](C)C(F)(F)F)c(N)c2C(N)=O)cc1	GRK6 (Homo sapiens, UniProt P43250)	kinase activity, inhibitor, HotSpot radiometric	–	100 nM, added: ATP 10 µM	–	remaining activity	30.5 ± 17.1%
